Measurements collected from several papers.
Each numbered part is a random draw from the data of one study; scales do not carry over between parts.

Study 1
Target: RNA binding protein fox-1 homolog 2, RRM domain, GST-SBP tag (RBFOX2, Homo sapiens, UniProt O43251-10, residues 100-194)
Method: RNA Bind-n-Seq
Molecule type: RNA
Matrix: in vitro
Tested at: 365 nM
Setting: natural RNA segment, single round, ends assumed
Baseline: no-protein control
Reading: higher = stronger binding
Constant ends, left off below: GGGAGUUCUACAGUCCGACGAUC … UGGAAUUCUCGGGUGCCAA
Target sequence (chain): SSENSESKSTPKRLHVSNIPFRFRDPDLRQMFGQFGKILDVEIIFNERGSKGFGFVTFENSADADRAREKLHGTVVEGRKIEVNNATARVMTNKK
| Oligonucleotide | RBNS enrichment (R) |
| --- | --- |
| AAAUGAAUAUUUGAUCUCUGAUUAAUUUUUGAGACUUCUAAAUCUCUUCUUGUUUUAAGUUUCUUGGACUUCUGACAAACUUCCCUGGAGAAGUGUUCAUUUUUGUUUUC | 0.896 |
| AAAGGAAGGUAACGAUUGCUGGGAUUCCAGGAGAGAGACUUUAAGACUUUGUCUGAGCUCAUGACAACAUAUUGCAAAUGGCCGGGCCACUCGUGGCCAGACGGACAGCA | 0.816 |
| UACCUGAAUGGAGAAUACAUCUUGUUUCUGAGUUUCAACACUAGCAUUUUUGGCUUACUCAUGGACAAAGUUCUGUAUAUAGUAUAAAGUCAUUAACAAGAAACAGGAUA | 0.625 |
| UGUGGUGACAGACAAUGCUAAGGAGGGAUCGCUUUGCCUGCCGGGUUCUCAAGGCUCUCUACAGGUUGCCUCUUGUACUCAGAAGUAUUAAACACUGAUUAUUAAACCUU | 0.544 |
| CUCUGUACAGGUGCCCUGAGCCUGGGUGCUCACUGUGGCGGUCCCCGUCCUGGCUAUGAAACCUUGUGAGCAGAAGGCAAGAGCGGCAAGAUGAGUUUUGAGCGUUGUAU | 0.455 |
| CGUCCCACACUACGCCCCCGCCCCACUCCCGGGGCCUGCUAAUCUGAGGCCGAUCCGGGACCGGCCUCCUUGCGUCUCCCAUUCCCAAGAUUGUCCCGCCUCUGCCAAUC | 0.854 |
| GUGCCUUGAUUGAUUAGAUAAAGAUUUCUAGUAGGCAGCAAAAGACCAAAUCUCAGUUGUUUGCUUCUUGCCAUCACUGGUCCAGGUCUUCAGUUUCCGAAUCUCUUUCC | 0.226 |
| AUUAAAAAUUGCAUUGUGUUACAGAGCUAGAAAAUUUUAUGUAUGAAAAACGAUAAUAGCCUUACACUGAGUACAAAUAAUACUUUAAGAGCAUGUGAAGAUGUGAUCAU | 19.6 |
| GUGGAAUAGAUAAUUUGCUGCAUGUUAAUUCUCAAGAACUAAGCCUGUGCCAGUGCUUUCCUAAGCAGUAUACCUUUAAUCAGAACUCAUUCCCAGAACCUGGAUGCUAU | 4.69 |

Study 2
Target: RING finger protein unkempt homolog, zinc fingers 1-6, GST-SBP tag (UNK, Homo sapiens, UniProt Q9C0B0, residues 30-357)
Sequence of UniProt Q9C0B0 (30-357, looked up): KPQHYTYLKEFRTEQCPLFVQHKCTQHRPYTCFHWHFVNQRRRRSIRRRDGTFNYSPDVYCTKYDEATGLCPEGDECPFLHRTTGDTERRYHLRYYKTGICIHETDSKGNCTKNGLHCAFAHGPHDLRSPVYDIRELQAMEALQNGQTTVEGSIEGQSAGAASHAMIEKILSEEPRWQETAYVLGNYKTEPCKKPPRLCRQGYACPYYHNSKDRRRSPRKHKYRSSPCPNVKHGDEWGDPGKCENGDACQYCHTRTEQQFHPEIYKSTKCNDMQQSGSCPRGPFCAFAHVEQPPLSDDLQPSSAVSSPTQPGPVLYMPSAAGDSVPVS
Method: RNA Bind-n-Seq
Molecule type: RNA
Matrix: in vitro
Tested at: not given
Setting: RNA with constant flanks, ends assumed
Baseline: input RNA pool
Reading: higher = stronger binding
| Oligonucleotide | bound/input enrichment |
| --- | --- |
| GGGAGUUCUACAGUCCGACGAUCCUUUUUGGCCAUCUUUUAAAACUUUUUUUUUUUUUUUUGAUCUAUAAAAUAGACAAGAGACCGUUCUACAAUGUCCAAGUCAUUCCAGCAGUCAUCUCUCGGUAGGGAUUCACAGGGUCACAACAGAGGAUUGAGCAUCA | 1.45 ratio |
| GGGAGUUCUACAGUCCGACGAUCUUUUAGAGUGUGGAAAAACCAAUCUGAGAAGAACAACCUACCUUGUCCUUGAUGAAGCAGACCGAAUGCUUGAUAUGGGCUUUGAACCCCAAAUAAGGAAGAUUGUGGAUCAAAUAAGACCAACAGAGGAUUGAGCAUCA | 0.181 ratio |
| GGGAGUUCUACAGUCCGACGAUCCUCAGGUUAGAACAAAAAUGUCAUAAAGGGCACUAAAAGUAACAUUUGGGUUUCACUCCAUAUCCCGAAGAAUUUAGCUCACAAAACAAUUUUUGUGUGUUUUGAGUAACUGAUGCAUAACAACAGAGGAUUGAGCAUCA | 0.48 ratio |
| GGGAGUUCUACAGUCCGACGAUCCUGGUUUCCUGGAUUGGAUUGAUCAGUUUGAUUUGUUCUGUAUUUGGCCAAACAGAUAAAAACCGAUGUUUAAAAGCAAAUGCCAAAUCUUGCGGAGAAUGUAUACAAGCAGGGCCAAAUCAACAGAGGAUUGAGCAUCA | 0.204 ratio |

Study 3
Target: Sal-like protein 4, full length isoform B (SALL4, Homo sapiens, UniProt Q9UJQ4-2, residues 1-616)
Method: universal PBM
Molecule type: double-stranded DNA, one strand shown
Matrix: in vitro
Tested at: not given
Setting: 8-mer, flanks averaged, mean of replicates
Reading: higher = stronger binding
Target sequence (chain): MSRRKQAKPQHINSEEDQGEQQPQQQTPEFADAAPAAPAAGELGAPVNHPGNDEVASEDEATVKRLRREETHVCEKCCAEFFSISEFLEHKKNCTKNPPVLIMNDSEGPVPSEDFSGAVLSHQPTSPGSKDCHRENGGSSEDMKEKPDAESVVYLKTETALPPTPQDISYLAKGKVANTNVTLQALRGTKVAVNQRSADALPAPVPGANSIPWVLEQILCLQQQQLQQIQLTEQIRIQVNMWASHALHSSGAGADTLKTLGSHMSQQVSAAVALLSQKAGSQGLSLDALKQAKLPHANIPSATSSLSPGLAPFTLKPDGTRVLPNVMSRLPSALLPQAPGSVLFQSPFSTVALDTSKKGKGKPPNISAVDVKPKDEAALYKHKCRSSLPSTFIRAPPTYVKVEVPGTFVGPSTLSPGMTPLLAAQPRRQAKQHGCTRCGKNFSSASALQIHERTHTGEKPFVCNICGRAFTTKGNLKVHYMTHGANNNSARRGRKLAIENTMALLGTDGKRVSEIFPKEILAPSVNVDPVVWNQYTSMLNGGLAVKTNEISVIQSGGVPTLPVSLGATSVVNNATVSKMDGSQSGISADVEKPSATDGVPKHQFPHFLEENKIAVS
| Oligonucleotide | E-score |
| --- | --- |
| ATTAGTGG | 0.0768 |
| CGGGTAAA | 0.0215 |
| CTAGCACA | 0.0185 |
| GTTGGAGA | -0.00557 |
| AGGTGAGC | -0.136 |
| CTTCTGTA | 0.14 |
| CTTCCACA | 0.0255 |

Mixed results
| Substance | target | assay | test system | conditions | scale | measurement | result |
| --- | --- | --- | --- | --- | --- | --- | --- |
| PhoQ, residues 284 288 289 292 302 303 DDMDFR | PhoP, residues 12 14 15 18 19 NQAHL (Escherichia coli, UniProt P23836) | Sort-seq, item: YFP reporter | E. coli | PhoQ-PhoP variant library, with: 10 µM Mg2+ | baseline: high Mg2+ state, higher = stronger signaling | fold induction | 1.03 |
